Measured values pooled from the literature.
A part holds a random share of what one study measured.

Sample 1 — technique: RNA Bind-n-Seq; molecule type: RNA; matrix: in vitro; tested at: 365 nM; relative to: no-protein control; reading: higher = stronger binding
Target: RNA binding protein fox-1 homolog 2, RRM domain, GST-SBP tag (RBFOX2, Homo sapiens, UniProt O43251-10, residues 100-194)
Setting: natural RNA segment, single round, ends assumed
All sequences stand within: GGGAGUUCUACAGUCCGACGAUC … UGGAAUUCUCGGGUGCCAA
Residues (chain): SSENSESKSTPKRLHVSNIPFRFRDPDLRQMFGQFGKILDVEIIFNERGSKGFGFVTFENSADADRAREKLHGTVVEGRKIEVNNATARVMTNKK
Sequence | RBNS enrichment (R)
UCUUCAGCCCCUUGCCUAGAGAGAUGGCCUGAUGGCCUUUUGUGCUUCCCCCCAGAGGGCAGUGGGGAUGCCUCCAGCCCCAGCCCCAAAUGGUGCUGCUACUGGAUCAG | 0.335
AACCAAAGGCCAAACUGAGGCUGCCCUGAGUUGGAAGACCACUUUCUGAAAUGCCCAUGGACUCUGCCUCCCAACCAUUCGUCUCUCACUCCUAGCAGAGCUGUCUGUGC | 0.34
GAGAUCUCAAUGCUGUCUGGGGACCCUAAGAGUUUUCUCACCUGUUCAGUCUCAUCUAACCUUCCAAUGUCUGAUGUUCCUGCCAAAUUCCUGCCUGAUUCUGGGUCCGU | 0.474
UGCUAAAAAUGGUAACCUCCUUUGAGCAUUGCAGAAAGAGGGUUCUGUUUCAAAUUGGGCUGACCGUAAAAGCAAUUUUGAUGUCUUUCAAACUACCAUAAAGGGAUUUU | 0.349
UUUAGGCUUAUGCCUAGAGUCACCCCAAAGAACUGAGACUGGCUGCAGCAGCCCAGCUGUGUUUCUCAUUGAUGAUAAUAGUAGGCUCUACUGCCCUCCCCUCCCCUAUC | 0.292
CAAAAUGUCUUAAUGCAAAUUUUGUAUUUCUUACAGGCCUACAGAAAUUGAAAAUGACCAAAAUCAGGAACCACAGAUUUGUGCCCAUUCCUAAUAUUUUGUUCUGCAAA | 0.36
CGGCAGCGUGUAGGGCUUCAGCUUCCUGGGUUUUCACCCUUCCUGCAGGCACUGUGGGGUCCUGAGGGCCAGUGGGUCCAUUUCACCUCUUGCUGCAUGAUGGUCAGUAG | 0.852
CACUUCAUUUUAAGAGCAAAAGACCCCAUGUUGAAAACUCCAUAACAGUUUUAUGCUGAUGAUAAUUUAUCUACAUGCAUUUCAAUAAACCUUUUGUUUCCUAAGACUAG | 0.365

Sample 2 — technique: protein binding microarray; molecule type: double-stranded DNA, one strand shown; matrix: in vitro; tested at: not given; relative to: not given; reading: higher = stronger binding
Target: Histone acetyltransferase KAT6A, winged helix 2, GST fusion (KAT6A, Homo sapiens, UniProt Q92794, residues 85-181)
Setting: 8-mer, flanks averaged, mean of 2 arrays, mostly near background
Residues (chain): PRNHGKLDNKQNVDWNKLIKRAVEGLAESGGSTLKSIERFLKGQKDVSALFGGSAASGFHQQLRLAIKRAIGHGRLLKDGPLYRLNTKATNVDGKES
Sequence | E-score
TAAGACAA | -0.0633
ATTGTAGG | 0.0313
GGTAAGAA | -0.0298
AGTGATAG | -0.147
CAATATCG | -0.0653
GGTAAGAC | 0.00788
AGAAGTTA | -0.0427
GTTCGTGA | -0.000155
GATGTGGC | -0.212
ATAGCTGA | 0.0495
GTCCGTTA | -0.0513
GGAATGAC | 0.0291
AATTGTGA | 0.0243
GAGTCTGC | -0.0096
AGCGTCAC | -0.0656
ACCCCAAG | -0.119
CTTCCCCA | -0.00169
ACTCAAGT | -0.177
TACGGAAA | -0.144
ATGAACGA | -0.0229
AAAGTTTC | 0.0584
ATGGTGTA | -0.144
AGGTGCAG | 0.0321
CGACTACG | -0.123
AACGCCTT | -0.118

Sample 3 — technique: RNA Bind-n-Seq; molecule type: RNA; matrix: in vitro; tested at: 1 µM; setting: whole 134-nt RNA, ends assumed; with: 150 mM KCl; relative to: input library; reading: higher = stronger binding
Target: Ras GTPase-activating protein-binding protein 1, C-terminal RGG region (G3BP1, Homo sapiens, UniProt Q13283)
Sequence of UniProt Q13283 (whole entry, looked up): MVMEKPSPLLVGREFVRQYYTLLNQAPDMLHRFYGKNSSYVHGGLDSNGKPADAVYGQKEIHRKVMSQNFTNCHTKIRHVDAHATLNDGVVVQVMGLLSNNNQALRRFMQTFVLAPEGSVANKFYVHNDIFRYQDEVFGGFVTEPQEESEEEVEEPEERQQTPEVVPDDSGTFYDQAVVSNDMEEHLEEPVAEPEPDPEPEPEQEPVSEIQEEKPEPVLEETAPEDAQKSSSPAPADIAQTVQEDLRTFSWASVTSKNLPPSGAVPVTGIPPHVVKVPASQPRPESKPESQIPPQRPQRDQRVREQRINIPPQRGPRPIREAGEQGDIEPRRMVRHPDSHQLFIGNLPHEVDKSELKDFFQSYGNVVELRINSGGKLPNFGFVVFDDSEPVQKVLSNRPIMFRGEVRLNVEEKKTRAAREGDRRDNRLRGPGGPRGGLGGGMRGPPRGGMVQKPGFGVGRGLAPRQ
All sequences stand within: GGGAGUUCUACAGUCCGACGAUC … UGGAAUUCUCGGGUGUCAAGG
Sequence | log2 enrichment
UCCUGUGCUACACAUCGUAUGUACCGAAUCGGGGAGGGGUUUUUUUGGGGAAAAAGGGGAAAGUAUUAUGUUACGCCGUUCGGAUCUGCA | 1.07
UUCCCCUGGAGGGCGCCUCCAUCCUUGGAGGCCUAGUGCCGUCGGAGAGAGAGCGGGAGCCGCGGACAGAGACGCGUGCGCAAUUCGGAG | -2.86
CUCAAGUCCUGUGCUACACAUCGUAUGUACCGAAUCGGGUUGGUUGGGUUGGGGAAAGUAUUAUGUUACGCCGUUCGGAUCUGCACUUCC | 0.271
CACAGACAACACGCACCCACACAGACACAGAGGGAAGGGGUUGAAAUGGGGACAGGGUGCACAGCAGGGCGGGGUAGGACCCCAGCCCCU | -0.139
AAGUCCUGUGCUACACAUCGUAUGUACCGAAUCGGGGAAAAGGGAAAAGGAAAAGGGAAAGUAUUAUGUUACGCCGUUCGGAUCUGCACU | -1.37
GCAGGAAGUAAAAACAAAUGGAAAUGCGUCGGAUAGUGGCAGGGGUGGGGGUUGCUAAGGAAAGGGUGGGAUGGGAGUGGGUAAAGAGUU | 1.85
AAGUCCUGUGCUACACAUCGUAUGUACCGAAUCGGUUUUUUUGGUUUUUGGAAAGGAAAGUAUUAUGUUACGCCGUUCGGAUCUGCACUU | -2
ACCAUGCAGGUGGGCAUCUUUGGGAAGUGGGGUAAGGGGGGGAUAGGGAGGGGGGUAACACUUUGGGAACAGGUGGUCCCAGGUCGUUUC | -1.25
ACCAUGCAGGUGGGCAUCUUUGUGAAGUGGGGCAAGGGGGGGAUAGGGAGGGGGGUAACACUUUGGGAACAGGUGGUCCCAGGUCGUUUC | -0.87

Sample 4 — technique: protein-binding microarray; molecule type: double-stranded DNA, one strand shown; matrix: in vitro; tested at: 940 nM top; setting: 60-bp whole probe; with: salmon DNA 0.4 mg/ml; relative to: random background probes; reading: higher = stronger binding; all sequences stand within: GCCTAGCAC … GTCTTGATTCGCTTGACGCTGCTG
Target: Interferon regulatory factor 5, full length, phosphomimetic (IRF5, Homo sapiens, UniProt Q13568-2, residues 1-514, S451D/S453D/S456D/S462D)
Sequence | fitted relative affinity
TCAGGACTGCTACTGCTTTAGTGCTAG | -0.58 z-score
GCCGATCTCAGACTGGAGACGTGCTAG | -0.503 z-score
CACGGACTGGACTTTCGGGACGTGCTA | 0.639 z-score
TTAGGTATTGGTATCGGTTAGTGCTAG | 7.49 z-score
GACGGACTGGGTAACGGGACGTGCTAG | -0.51 z-score
GACGGCATCGACTTTCGGGACGTGCTA | 0.384 z-score
AACGATATCAGTCTCGAGACGTGCTAG | 1.48 z-score
GTAGGTTTCCTACTGCTTTAGTGCTAG | 0.284 z-score
TTAGGTCTCGGTCTCGGTCAGTGCTAG | 5.02 z-score
ACGTCTTCATGTTTTTTTCTGTGCTAG | 1.07 z-score
TCATGTCTGATTATTTAACTGTGCTAG | 0.211 z-score
TTAGGTCTTCTTCTCCTTTAGTGCTAG | 0.769 z-score
CACGGTTTCGGTATCGGGACGTGCTAG | 12.8 z-score
TTTGATTTCAGACTGGATTAGTGCTAG | -0.203 z-score
CTCACCATCATCCTCACTGCGTGCTAG | 1.04 z-score
TCAGTCATCGATTTCTTACTGTGCTAG | 0.173 z-score
GATGGACTGGACTTTCGGGACGTGCTA | 0.153 z-score
TTAGATATAAGTTTCGATTAGTGCTAG | 6.9 z-score
GACGATATCAGACTGGAGAAGTGCTAG | -0.454 z-score

A few entries again (sample 2):
Sequence | E-score
AATTGTGA | 0.0243
GAGTCTGC | -0.0096
AGCGTCAC | -0.0656
